Published values pooled from the literature.
Every numbered part comes from another study and shows a few of its results, in no order. Substitutions count along the parent as printed.

Block 1
Target: UBE2D4 UBC core domain (UniProt Q9Y2X8)
Technique: yeast two-hybrid
Sample: yeast
Setting: mostly zero background
Baseline: not given
Direction: higher = stronger interaction
B1: MDM4 RING domain (UniProt O15151); chain MEDCQNLLKPCSLCEKRPRDGNIIHGRTGHLVTCFHCARRLKKAGASCPICKKEIQLVIKVF
Target sequence (chain): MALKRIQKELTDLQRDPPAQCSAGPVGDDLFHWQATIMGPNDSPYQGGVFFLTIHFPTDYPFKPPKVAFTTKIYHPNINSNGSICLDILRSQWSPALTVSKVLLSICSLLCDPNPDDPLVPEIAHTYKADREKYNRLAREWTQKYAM
Sequence	lacZ reporter activity
YQNEVDDDLVCHICLQPLLQPLDTPCGHTFCYKCLRNFLQEKDFCPLDRKRLHFKLCKK (LNX2 RING domain (UniProt Q8N448))	0
KETIKKTTKPCPRCHVPVEKNGGCMHMKCPQPQCRLEWCWNCGCEWNRVCMG (PRKN RING domain (UniProt O60260))	0
FDGDVDPDLKCALCHKVLEDPLTTPCGHVFCAGCVLPWVVQEGSCPARCRGRLSAKELN (PDZRN3 RING domain (UniProt Q9UPQ7))	0
AVPSGLEENLCKICMDSPIDCVLLECGHMVTCTKCGKRMNECPICRQYVIRAVHVF (RFFL RING domain (UniProt Q8WZ73))	0
NLSELTPYILCSICKGYLIDATTITECLHTFCKSCIVRHFYYSNRCPKCNIVVHQTQPLY (PCGF6 RING domain (UniProt Q9BYE7))	0
B1 (MDM4 RING domain)	0

Block 2
Target: Cyclic AMP-dependent transcription factor ATF-1, full length (ATF1, Homo sapiens, UniProt P18846, residues 1-271)
Technique: protein-binding microarray
Molecule type: hairpin DNA
Sample: in vitro
Tested at: not given
Setting: whole hairpin DNA, median over replicate spots
Baseline: not given
Direction: higher = stronger binding
Constant ends, left off below: GAGGCCG … CGGCCTCACACTC
Construct (chain): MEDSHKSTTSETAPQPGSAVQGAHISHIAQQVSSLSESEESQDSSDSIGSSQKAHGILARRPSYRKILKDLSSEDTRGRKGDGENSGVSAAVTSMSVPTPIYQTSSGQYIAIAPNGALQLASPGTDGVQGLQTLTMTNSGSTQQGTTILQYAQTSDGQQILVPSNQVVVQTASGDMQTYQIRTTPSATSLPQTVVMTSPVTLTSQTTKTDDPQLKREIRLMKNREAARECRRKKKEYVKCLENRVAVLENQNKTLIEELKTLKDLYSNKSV
Strand	median fluorescence
GATGAAGTCAGCCTCCTGGCTGACTTCATC	3280 a.u.
GCTGCGGTCAGCCTCCTGGCTGACCGCAGC (5mC at 12)	3380 a.u.
ACGACGTCCGGCCTCCTGGCCGGACGTCGT (5mC at 9 15 28 35)	3700 a.u.
GATGACATCAGCCTCCTGGCTGATGTCATC	4310 a.u.
AATGACGTCAGCCTCCTGGCTGACGTCATT	13100 a.u.
GATGACGCCAGCCTCCTGGCTGGCGTCATC	5400 a.u.
ACCGCGTCGTGCCTCCTGGCACGACGCGGT (5mC at 9 10 15 29)	3880 a.u.
ACGACGACGTGCCTCCTGGCACGTCGTCGT (5mC at 9 15 29 35)	3810 a.u.

Block 3
Target: CCNB2, cyclin fold, Cln2 fusion (human)
Technique: yeast growth competition, sequencing
Sample: yeast
Setting: weak parent motif
Baseline: not given
Direction: higher = stronger binding
Starting sequence: RB1 docking peptide (human); PKPLKKLRFDIEG; partner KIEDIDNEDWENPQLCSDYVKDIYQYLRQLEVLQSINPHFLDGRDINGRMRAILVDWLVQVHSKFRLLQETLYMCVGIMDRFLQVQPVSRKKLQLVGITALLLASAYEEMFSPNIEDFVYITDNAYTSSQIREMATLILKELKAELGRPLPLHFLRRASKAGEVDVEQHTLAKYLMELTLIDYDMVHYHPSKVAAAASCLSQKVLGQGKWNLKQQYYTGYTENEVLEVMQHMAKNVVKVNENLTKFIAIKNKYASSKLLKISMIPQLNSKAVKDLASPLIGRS
Substitution	normalised enrichment score
PKPLKKLRHDIEG [F9H]	0.431
PKPLKKSRFDIEG [L7S]	0.508
PKPLKKLRFDIVG [E12V]	-0.0533
EKPLKKLRFDIEG [P1E]	0.332
PKPLKKLRFDAEG [I11A]	0.642
PKPLYKLRFDIEG [K5Y]	0.676
PKPLKKLFFDIEG [R8F]	0.0417
PKPLKKLRFVIEG [D10V]	0.906

Single results of other studies
Technique: cross-linking MS
Substance	partner	sample	setting	with	measurement	value
KIF5B (Homo sapiens, UniProt P33176)	KLC2 (Homo sapiens, UniProt Q9H0B6)	cell fractions	–	DMTMM	cross-linked residues	K801 to E66
PSMA2 (Homo sapiens, UniProt P25787)	PSMB7 (Homo sapiens, UniProt Q99436)	–	hits only	–	interaction screen	cross-linked
NUP54 (Homo sapiens, UniProt Q7Z3B4)	NUP205 (Homo sapiens, UniProt Q92621)	–	hits only	–	interaction screen	cross-linked
HSP90AB1 (Homo sapiens, UniProt P08238)	POLA1 (Homo sapiens, UniProt P09884)	–	hits only	–	interaction screen	cross-linked

Repeated from above (single results of other studies):
Substance	partner	sample	setting	with	measurement	value
KIF5B (Homo sapiens, UniProt P33176)	KLC2 (Homo sapiens, UniProt Q9H0B6)	cell fractions	–	DMTMM	cross-linked residues	K801 to E66
PSMA2 (Homo sapiens, UniProt P25787)	PSMB7 (Homo sapiens, UniProt Q99436)	–	hits only	–	interaction screen	cross-linked
NUP54 (Homo sapiens, UniProt Q7Z3B4)	NUP205 (Homo sapiens, UniProt Q92621)	–	hits only	–	interaction screen	cross-linked
